Measured values of several laboratories.
“And” joins repeats or separate records; there may be more than shown. Numbers after ± are the reported error.

`Cn1c(Nc2nc3ccc(C(F)(F)F)cc3s2)nc2cc(C(=O)NCCOCCO)ccc21` has a fold change of 2.25 (SH-SY5Y; RNA-seq, measured: ITGA2 mRNA; 5 µM, 5 h; baseline: untreated cells).
`OC[C@@H](O)[C@@H](O)CO` has an inhibition of 30% (THP-1; pyroptotic LDH release; 2 µM, 40 min, with: LPS then nigericin).
For `COc1cc(CCC(=O)O)ccc1O`, the kynurenine level was 148 ± 6.9 % change (Caco-2/THP-1 co-culture; concentration not given, with: LPS 250 ng/mL).
`CC(=O)c1ccc(O)c(C(=O)O)c1` has an inhibition of 0.998% (THP-1; pyroptotic LDH release; 2 µM, 40 min, with: LPS then nigericin).
`CCN1CCN(Cc2ccc(NC(=O)c3ccc(C)c(-c4ccc5nc(NC(=O)C6CC6)cn5n4)c3)cc2C(F)(F)F)CC1` — result for phosphorylation: “inhibited” (MUTZ5 cells; Western blot, measured: JAK2, STAT5, STAT3; concentration not given).
With `O=C(O)CCC(=O)Nc1ccc(S(=O)(=O)Nc2nccs2)cc1` the inhibition was -6.94% (THP-1; pyroptotic LDH release; 2 µM, 40 min, with: LPS then nigericin).
For `Nc1cccc2c1CN(C1CCC(=O)NC1=O)C2=O` (stereo not shown), the viability was 70% (bone marrow CD138+ myeloma cells; XTT; 1.2 µM, mean of three patients).
`CCCCOc1ccc(OCCCN2CCOCC2)cc1` has an inhibition of 25.5% (THP-1; pyroptotic LDH release; 2 µM, 40 min, with: LPS then nigericin).
`Cc1cc(Nc2ncc(Cl)c(Nc3ccccc3S(=O)(=O)C(C)C)n2)c(OC(C)C)cc1C1CCNCC1` has an Emax of 100% (Ba/F3 EML4-ALK variant 1 L1196Q; cell viability).
With `CCn1cc(-c2cc(Cn3ccnc3)cc3c2CCN([C@H](c2cc(OC)ccn2)C2CC2)C3=O)c(C(F)(F)F)n1` the EC50 was 1.61 µM (OCUM1; cell growth, inhibitor; 120 h).
With `COc1ccc2c(O[C@@H]3C[C@H]4C(=O)N[C@]5(C(=O)NS(=O)(=O)C6CC6)C[C@H]5/C=C\CCCCN(C)C(=O)[C@@H]4C3)cc(-c3nc(C(C)C)cs3)nc2c1C` the inhibition was 33.7% (THP-1; pyroptotic LDH release; 2 µM, 40 min, with: LPS then nigericin).
`CCc1c(-c2ccccc2)c(-c2ccccc2)nn1-c1ccccc1-c1cccc(OCC(=O)O)c1` gave a mRNA level of 2.75 and 2.46 and 2.85 (mouse osteoclasts; RT-qPCR, measured: Itgb3; concentration not given, unit not given; baseline: bone marrow macrophages).
`Cc1nn(-c2nc3ccc(Cl)c(Cl)c3[nH]2)c(O)c1C1OC(=O)c2ccccc21` (stereo not shown): “IFNB1 mRNA level” 0.545 and 0.686 and 0.694 (RAW-ISG; RT-qPCR; 5 µM, 312 h, unit not given, with: HT-DNA; baseline: DMSO).
For `CCCC(=O)[O-].[Na+]`, “transepithelial electrical resistance” read 79.6 ± 7.6% (Caco-2/THP-1 co-culture; TEER; concentration not given, with: LPS 100 ng/mL; baseline: control).
With `COC(=O)C1=C(C)NC(C)=C(C(=O)OC/C=C/c2ccc(Cn3ccnc3)cc2)C1c1cccc([N+](=O)[O-])c1` (stereo not shown) the EC50 was greater than 9.96 µM (HEK293T ATF4-FLuc reporter; ATF4 reporter gene, activator, luciferase reporter).
`O=C(O)/C=C/c1ccc(O)c(O)c1` has an IL-1β level of 5.8 ± 8.1 fold change (coculture, Caco-2, THP-1; ELISA; 50 ng/mL, 8 h, with: LPS, IFNγ, ATP; baseline: untreated control).
For `COc1cc(NC(=O)CCN2CCC(OC(=O)Nc3ccccc3-c3ccccc3)CC2)c(Cl)cc1CNC[C@H](O)c1ccc(O)c2[nH]c(=O)ccc12`, the EC50 was greater than 9.96 µM (HEK293T ATF4-FLuc reporter; ATF4 reporter gene, activator, luciferase reporter).
For `Cn1cc(-c2ccc(-c3cncc(Cl)c3N3CCC4(CCNC4=O)CC3)cc2)cn1`, “log2 fold change” read 8.68 (COLO 205; gene expression, microarray, measured: EPAS1 mRNA; concentration not given, 2 h; baseline: untreated cells).
`O=c1c(O)c(-c2ccc(O)cc2)oc2cc(O)cc(O)c12` gave an IL-1β level of 7.2 ± 1 fold change (coculture, Caco-2, THP-1; ELISA; 250 ng/mL, 8 h, with: LPS, IFNγ, ATP; baseline: untreated control).
`C[C@]12CC[C@H](O)CC1=CC[C@@H]1[C@@H]2CC[C@]2(C)C(c3cccnc3)=CC[C@@H]12` gave a GI50 of 12.6 ± 0.16 µM (C4-2B; cell growth, MTT).
`CS(=O)(=O)Nc1ccc(C(=O)O[C@@H](Cc2c(Cl)c[n+]([O-])cc2Cl)c2ccc(OC(F)F)c(OCC3CC3)c2)cc1OCC1CC1` gave an EC50 of greater than 9.96 µM (HEK293T ATF4-FLuc reporter; ATF4 reporter gene, activator, luciferase reporter).
For `c1ccc2[nH]ccc2c1`, “mRNA level, LS mean” read 1.64 counts per million (HCT-8; RNA-seq, measured: SERPINF1; concentration not given).
The EC50 of `CC[C@@]1([C@@H]2O[C@@H]([C@H]3O[C@@](O)(CO)[C@H](C)C[C@@H]3C)C[C@@H]2C)CC[C@H]([C@]2(C)CC[C@]3(C[C@H](O)[C@@H](C)[C@@H]([C@@H](C)[C@@H](OC)[C@H](C)C(=O)O)O3)O2)O1` is reported as 0.065 µM (human iPSC-derived cardiac fibroblasts, reporter lines; antifibrotic reporter effect; doses, lower, re-examined at).
Under “transepithelial electrical resistance”, `O=C(O)Cc1ccc(O)cc1` is recorded as 75.3 ± 5.4% (Caco-2/THP-1 co-culture; TEER; 0.05 µg/mL, with: LPS 50 ng/mL; baseline: control).
`COc1cc(OC)cc(OC)c1` gave an inhibition of -0.958% (THP-1; pyroptotic LDH release; 2 µM, 40 min, with: LPS then nigericin).
`Cc1cnc2ccc3c(c2n1)N1CCC(O)N=C1N3C` (stereo not shown) has a plating efficiency of 0% (BALB/c 3T3; colony formation; 10 µM).
`CCn1cc(-c2cc(Cn3ccoc3=N)cc3c2CCN([C@@H](C)c2cc(OC)ccn2)C3=O)c(C(F)(F)F)n1` has an EC50 of 1.43 µM (MDST8; cell growth, inhibitor; 120 h).
With `O=C(O)c1cc(O)c(O)c(O)c1` the IL-1β level was 6.4 ± 0.9 fold change (coculture, Caco-2, THP-1; ELISA; 500 ng/mL, 8 h, with: LPS, IFNγ, ATP; baseline: untreated control).
The sarcomere length of `CC(C)NCC(O)c1ccc(O)c(O)c1` (stereo not shown) is reported as 1.8 µm (mouse ventricular cardiomyocytes; dose not given, 0.043 s).
`O=C(C[C@@H](C(F)F)n1ccc(F)n1)N1CCC(O)(Cn2cnc3c(cnn3-c3ccc(F)cc3)c2=O)CC1` — result for “early apoptotic cells”: 31% and 27.7% and 36.1% (CHP-212 parental; annexin V/PI flow cytometry; 1 µM, 48 h).
With `O=C(/C=C/C=C/C=C/C1CCCCC1)NC1=C[C@@](O)(/C=C/C=C/C=C/C(=O)NC2=C(O)CCC2=O)[C@@H]2O[C@@H]2C1=O` the GI50 was 10.8 µM (SK-ES1; cell growth, CellTiter-Glo; 78 h).
The mRNA level of `COc1cc(/C=C/C(=O)N2CCC=CC2=O)cc(OC)c1OC` is reported as 63.9 ± 5.6% (MDA-MB-468; quantitative RT-PCR, measured: GPX7; 30 µM, 8 h; baseline: untreated cells).
The EC50 of `C[C@@]12C(=O)OC(=O)[C@]1(C)[C@H]1CC[C@@H]2O1` is reported as greater than 9.96 µM (HEK293T ATF4-FLuc reporter; ATF4 reporter gene, activator, luciferase reporter).
Under “LATS band intensity”, `CC/C(=N\NC(=O)C(C)Nc1ccccc1)c1ccc(O)c(C)c1O` (stereo not shown) is recorded as 1 ± 0.39 (SK-OV-3; Western blot; 10 µM, 6 h, 2D culture, unit not given; baseline: DMSO).
With `COc1ccc(C(=O)c2ccccc2)c(O)c1` the inhibition was -5.05% (THP-1; pyroptotic LDH release; 2 µM, 40 min, with: LPS then nigericin).
`C[C@@]12C(=O)OC(=O)[C@]1(C)[C@H]1CC[C@@H]2O1`: “MyBP-C level change” 8 SD (human iPSC cardiomyocytes; plate-normalised; concentration not given, hit retest; baseline: vehicle controls, SDs below control).
`Cc1ccc(CNC(=O)Cn2cc(CSc3nc4ccccc4[nH]3)nn2)cc1` has a viability of 10.6% (MDA-MB-231; MTT; 62.5 ppm).
`COc1cc2ncnc(Nc3ccc(Oc4ccccc4)cc3C)c2cc1OC.O=C(O)C(F)(F)F`: “Bliss synergy score” 223% (Calu-6 (KRAS Q61K); resazurin; concentration not given, 72 h, with: trametinib; direction not given).
`COc1cccc2c1C(=O)c1c(O)c3c(c(O)c1C2=O)C[C@@](O)(C(=O)CO)C[C@@H]3O[C@H]1C[C@H](N)[C@H](O)[C@H](C)O1` — result for “point of departure”: 0.00724 µM (HepG2; oxidative stress, measured: reactive oxygen species; 6 h, distribution mode 1).
With `Clc1nc(NCc2ccco2)c2[nH]cnc2n1` the ΔPSI was 0.213 (iPSC-derived cardiomyocytes; RNA-seq, measured: chr9 exon ending 127879624; unit not given; baseline: DMSO minus compound).
`COC(=O)N[C@H](C(=O)N1CC2(CC2)C[C@H]1c1nc(-c2ccc3c(c2)C(F)(F)c2cc(-c4ccc5[nH]c([C@@H]6[C@H]7CC[C@H](C7)N6C(=O)[C@@H](NC(=O)OC)C(C)C)nc5c4)ccc2-3)c[nH]1)C(C)C` gave an inhibition of 5% (THP-1; pyroptotic LDH release; 2 µM, 40 min, with: LPS then nigericin).
`COc1cnc2cccc(N3CCc4c(cc(Cn5ccnc5C)cc4-c4cn(C)nc4C(F)(F)F)C3=O)c2c1` has an EC50 of 18.5 µM (SW48; cell growth, inhibitor; 120 h).
With `Nc1nc(Nc2ccc3c(c2)CC[C@@H](N2CCCC2)CC3)nn1-c1cc2c(nn1)-c1ccccc1CCC2` the EC50 was 2.53 µM (HEK293T ATF4-FLuc reporter; ATF4 reporter gene, activator, luciferase reporter).
With `O=C(Nc1nnc2n3c(nc(-c4ccc(Cl)cc4)c1-2)SCC3=O)c1ccccc1` the cell growth was 99.2% (RXF 393; SRB; 10 µM, NCI60 single-dose screen; baseline: untreated).
For `CCC[C@@H]1O[C@@H]2C[C@H]3[C@@H]4C[C@H](F)C5=CC(=O)CC[C@]5(C)[C@@]4(F)[C@@H](O)C[C@]3(C)[C@]2(SC)O1`, the EC50 was 7.81 µM (HEK293T ATF4-FLuc reporter; ATF4 reporter gene, activator, luciferase reporter).
`C[C@H](CS)C(=O)N1CCC[C@H]1C(=O)O` gave an apoptotic cells of 7.47% (HUVEC; annexin V/PI flow cytometry; 10 µM, early and late apoptosis, with: angiotensin II 1 µM).
For `CCCCN1CCN(c2ccc3[nH]c(-c4ccc5[nH]c(-c6ccc(OCC)c(OCC)c6)nc5c4)nc3c2)CC1`, the growth percent was -11.9% (OVCAR-8; SRB; 10 µM, 48 h).
For `C[C@H](NP(=O)(OC[C@H]1O[C@@H](n2ccc(N)nc2=O)C(F)(F)[C@@H]1O)Oc1ccccc1)C(=O)OCc1ccccc1` (stereo partly shown), the EC50 was 1.34 µM (HEK293T ATF4-FLuc reporter; ATF4 reporter gene, activator, luciferase reporter).
`COc1ccc2c(N(C)c3ccc(/C(C)=N/OCCN)cc3)c3c(Cl)coc3nc2c1` — result for “inhibition of cell proliferation”: greater than 85% (NE_1.8; trypan blue exclusion; 1 µM, 72 h, steroid-reduced conditions).
`NS(=O)(=O)OC[C@H]1C[C@@H](Nc2ccnc3cc(-c4cccc(SC(F)(F)F)c4)nn23)[C@H](O)[C@@H]1O` has an EC50 of 0.103 µM (HEK293T ATF4-FLuc reporter; ATF4 reporter gene, activator, luciferase reporter).
`COc1cc(/C=C/C(=O)O)ccc1O` has an IL-1β level of 10.1 ± 1.5 fold change (coculture, Caco-2, THP-1; ELISA; 100 ng/mL, 8 h, with: LPS, IFNγ, ATP; baseline: untreated control).
`Cc1cc(Nc2ncc(Cl)c(Nc3ccccc3S(=O)(=O)C(C)C)n2)c(OC(C)C)cc1C1CCNCC1` — result for “log2 fold change”: -1.63 (CLB-BAR; phosphoproteomics LC-MS/MS, measured: GNAS phosphorylation; 200 nM, 60 min; baseline: untreated).

Repeated from above:
`O=C(C[C@@H](C(F)F)n1ccc(F)n1)N1CCC(O)(Cn2cnc3c(cnn3-c3ccc(F)cc3)c2=O)CC1` — result for “early apoptotic cells”: 31% and 27.7% and 36.1% (CHP-212 parental; annexin V/PI flow cytometry; 1 µM, 48 h).
`COc1cnc2cccc(N3CCc4c(cc(Cn5ccnc5C)cc4-c4cn(C)nc4C(F)(F)F)C3=O)c2c1` has an EC50 of 18.5 µM (SW48; cell growth, inhibitor; 120 h).
The EC50 of `CC[C@@]1([C@@H]2O[C@@H]([C@H]3O[C@@](O)(CO)[C@H](C)C[C@@H]3C)C[C@@H]2C)CC[C@H]([C@]2(C)CC[C@]3(C[C@H](O)[C@@H](C)[C@@H]([C@@H](C)[C@@H](OC)[C@H](C)C(=O)O)O3)O2)O1` is reported as 0.065 µM (human iPSC-derived cardiac fibroblasts, reporter lines; antifibrotic reporter effect; doses, lower, re-examined at).
